Assay results from different studies.
Parts stem from different laboratories: compare values within a part only. Positions count from the first letter of the parent shown.

Set 1
Target: MAFF, bZIP domain (human)
Technique: DHFR protein complementation
Medium: yeast
Setting: single substitutions, most at no-binding floor
Relative to: wild-type JUN-FOS pair
Reading: higher = stronger binding
Starting sequence: JUN, bZIP domain (human); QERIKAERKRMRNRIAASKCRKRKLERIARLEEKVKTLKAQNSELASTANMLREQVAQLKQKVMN; partner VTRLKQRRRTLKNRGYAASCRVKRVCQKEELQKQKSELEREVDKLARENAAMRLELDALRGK
| Substitution | binding fitness [natural log] |
| --- | --- |
| E32A | -1.19 |
| T48A | -1.45 |
| E32V | -1.35 |
| S47G | -1.46 |
| E44K | -1.5 |
| E32W | -1.51 |
| T48H | -1.48 |
| S47Y | -1.26 |
| N42H | -0.977 |
| L52H | -1.49 |
| N42C | -1.18 |
| K39L | -1.44 |
| A49V | -1.2 |
| T48W | -1.28 |
| A40S | -1.46 |
| K36M | -1.58 |
| Q55Y | -1.49 |
| T48P | -1.43 |
| T37N | -1.42 |
| E44G | -1.5 |
| T37M | -1.3 |

Set 2
Target: CDC34 UBC core domain (UniProt P49427)
Technique: yeast two-hybrid
Medium: yeast
Setting: mostly zero background
Relative to: not given
Reading: higher = stronger interaction
B1: MSL2 RING domain (UniProt Q9HCI7); chain LLPYFRQSLSCCVCGHLLQDPIAPTNSTCQHYVCKTCKGKKMMMKPSCSWCKDYEQFEENKQ
B2: RNF14 RING domain (UniProt Q9UBS8); chain IKCFNSKLFLCSICFCEKLGSECMYFLECRHVYCKACLKDYFEIQIRDGQVQCLNCPEPKCPSVATPGQVK
B3: TRIM52 RING domain (UniProt Q96A61); chain PMQTLQEEAVCAICLDYFKDPVSISCGHNFCRGCVTQLWSKEDEEDQNEEEDEWEEEEDEEAV
B4: RNF149 RING domain (UniProt Q8NC42); chain EKGIDVDAENCAVCIENFKVKDIIRILPCKHIFHRICIDPWLLDHRTCPMCKLDVIKALGYW
B5: NSMCE1 RING domain (UniProt Q8WV22); chain RETYPDAVKICNICHSLLIQGQSCETCGIRMHLPCVAKYFQSNAEPRCPHCNDYWPHEIPKV
B6: TRIM10 RING domain (UniProt Q9UDY6); chain SVTSLADEVNCPICQGTLREPVTIDCGHNFCRACLTRYCEIPGPDLEESPTCPLCKEPFRPGSFRP
B7: TRIM35 RING domain (UniProt Q9UPQ4); chain PSRSFKEELLCAVCYDPFRDAVTLRCGHNFCRGCVSRCWEVQVSPTCPVCKDRASPADLRT
B8: RFPL2 RING domain (UniProt O75678); chain MAALFQEASSCPVCSDYLEKPMSLECGCAVCLKCINSLQKEPHGEDLLCCCSSMVSRKNKIRR
Residues (chain): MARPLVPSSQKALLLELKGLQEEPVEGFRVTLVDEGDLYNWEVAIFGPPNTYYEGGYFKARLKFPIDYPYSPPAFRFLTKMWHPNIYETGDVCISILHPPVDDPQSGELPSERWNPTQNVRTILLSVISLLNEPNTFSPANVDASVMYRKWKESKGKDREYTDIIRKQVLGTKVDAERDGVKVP
| Sequence | lacZ reporter activity |
| --- | --- |
| B1 (MSL2 RING domain) | 0 |
| LKQVSIRENCCSLCCDEVADTQLKPCGHSDLCMDCALQLETCPLCRKEIVSRIRQI (RSPRY1 RING domain (UniProt Q96DX4)) | 0 |
| B2 (RNF14 RING domain) | 0 |
| B3 (TRIM52 RING domain) | 0 |
| B4 (RNF149 RING domain) | 0 |
| B5 (NSMCE1 RING domain) | 0 |
| B6 (TRIM10 RING domain) | 0 |
| B7 (TRIM35 RING domain) | 0 |
| ISNDSETLEECMVCSDMKRDTLFGPCGHIATCSLCSPRVKKCLICKEQVQSRTKIE (MIB1 RING domain (UniProt Q86YT6)) | 0 |
| B8 (RFPL2 RING domain) | 0 |

Set 3
Target: Hepatocyte nuclear factor 3-beta, forkhead domain (FOXA2, Homo sapiens, UniProt Q9Y261, residues 142-269)
Technique: protein-binding microarray
Molecule type: double-stranded DNA, one strand shown
Medium: in vitro
Concentration: not given
Setting: k-mer, scored over probes, only values ≥0.25
Reading: higher = stronger binding
Construct (chain): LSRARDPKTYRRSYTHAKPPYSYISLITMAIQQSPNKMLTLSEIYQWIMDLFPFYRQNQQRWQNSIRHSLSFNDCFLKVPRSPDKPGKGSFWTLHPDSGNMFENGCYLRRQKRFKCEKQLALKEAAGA
| Oligonucleotide | E-score |
| --- | --- |
| TATTTGAA | 0.286 |
| CTATACTA | 0.296 |
| GTGTCTAA | 0.256 |
| ACACACAT | 0.406 |
| TGTGGTAA | 0.307 |
| ATTACGTA | 0.302 |
| CACATCTA | 0.285 |
| ACAGTGTA | 0.277 |
| AGACAGAT | 0.259 |
| AAACAATA | 0.342 |
| ATGTTTAA | 0.356 |
| ACATGACA | 0.304 |
| CATTTCAA | 0.323 |
| ATCTACAC | 0.293 |
| GATAACTA | 0.338 |
| ATATTTGG | 0.273 |
| GCAAACAA | 0.353 |

Set 4
Target: ABI1, truncated, D143A, DHFR fusion (Arabidopsis thaliana)
Technique: DHFR PCA, deep sequencing
Medium: yeast
Setting: methotrexate growth selection, single substitutions
Together with: (+)-ABA 200 µM
Relative to: wild-type fitted maximum
Reading: higher = stronger binding
Starting sequence: PYL1, truncated, DHFR fusion (Arabidopsis thaliana); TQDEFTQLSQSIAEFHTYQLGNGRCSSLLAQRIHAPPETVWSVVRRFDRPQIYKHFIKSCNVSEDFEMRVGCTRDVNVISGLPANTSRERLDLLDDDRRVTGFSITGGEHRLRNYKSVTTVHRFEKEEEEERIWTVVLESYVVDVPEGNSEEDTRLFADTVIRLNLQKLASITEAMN
| Substitution | relative binding score |
| --- | --- |
| N149H | 44.4% |
| T120G | 20.7% |
| F124E | 101% |
| H110T | 47.5% |
| A30F | 104% |
| F56P | 7.94% |
| L28I | 96.6% |
| T39V | 101% |
| K126M | 105% |
| D3C | 90.4% |
| Y53I | 43.5% |
| S27I | 1.58% |
| T119N | 20.9% |
| K58Y | 89.8% |
| Y18A | 90.6% |
| C25I | 93.6% |
| H16N | 15.5% |
| I33N | -18.7% |

Set 5
Target: CCNB2, cyclin fold, Cln2 fusion (human)
Technique: yeast growth competition, sequencing
Medium: yeast
Setting: weak parent motif
Relative to: not given
Reading: higher = stronger binding
Starting sequence: SLBP docking peptide (human); ARYKRKLLINDFG
| Substitution | normalised enrichment score |
| --- | --- |
| K6M | 0.359 |
| F12V | 0.399 |
| K4S | 0.185 |
| R2K | 0.717 |
| G13C | 0.587 |
| L8F | 1 |
| L8P | 0.474 |
| R2D | 0.75 |
| G13M | 0.662 |
| L8V | 1.07 |
| N10L | 0.888 |
| A1M | 0.929 |
| R5K | 1.04 |
| L8I | 0.608 |
| D11V | 0.46 |
| A1Q | -0.06 |
| G13D | 0.0321 |
| K6A | 0.872 |
| N10F | 0.578 |
| R2F | 0.0968 |
| L8K | -0.214 |
| L7W | -0.044 |
| R2P | 0.422 |
| R5C | 0.689 |
| R2E | 0.389 |

Excerpt of the above (set 1):
| Substitution | binding fitness [natural log] |
| --- | --- |
| T48W | -1.28 |
| E32W | -1.51 |
| K36M | -1.58 |
| T48H | -1.48 |
| A40S | -1.46 |
| T48A | -1.45 |
| S47Y | -1.26 |
| Q55Y | -1.49 |
| K39L | -1.44 |
| T37M | -1.3 |
| E44K | -1.5 |
| E44G | -1.5 |
| E32A | -1.19 |
